Results collected from several papers.
A part holds a random share of what one study measured.

Series 1
Target: Centromere-binding protein 1, full length, N-terminal tag (CBF1, Saccharomyces cerevisiae, UniProt P17106, residues 1-351)
Sequence of UniProt P17106 (whole entry, looked up): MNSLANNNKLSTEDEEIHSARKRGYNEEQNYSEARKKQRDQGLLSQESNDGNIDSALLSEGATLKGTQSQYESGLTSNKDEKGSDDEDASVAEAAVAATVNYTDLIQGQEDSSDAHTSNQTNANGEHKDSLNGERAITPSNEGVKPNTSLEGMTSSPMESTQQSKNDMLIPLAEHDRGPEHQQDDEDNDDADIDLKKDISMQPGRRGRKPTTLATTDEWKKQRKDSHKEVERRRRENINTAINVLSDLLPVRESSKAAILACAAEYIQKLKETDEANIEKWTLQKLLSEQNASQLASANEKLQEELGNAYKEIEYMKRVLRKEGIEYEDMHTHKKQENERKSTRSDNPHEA
Technique: protein-binding microarray
Molecule type: double-stranded DNA, one strand shown
Matrix: in vitro
Tested at: 0.8 µM
Notes: whole 60-bp probe, no competitor
Reading: higher = stronger binding
Measurement: fluorescence intensity
TGTACGAAGCTATTCGGCGTGATTATAGTAGTTAGGGTCTTGATTCGCTTGACGCTGCTG: 576 a.u.
GAAAAAATTTTTTTTTGCACCACGTGATTTTTTTAGGTCTTGATTCGCTTGACGCTGCTG: 17000 a.u.
GAACCTAAGTCAGGGCACGCTTGCTTTGTTTCTTAGGTCTTGATTCGCTTGACGCTGCTG: 500 a.u.

Series 2
Target: Sal-like protein 4, full length isoform B (SALL4, Homo sapiens, UniProt Q9UJQ4-2, residues 1-616)
Technique: universal PBM
Molecule type: double-stranded DNA, one strand shown
Matrix: in vitro
Tested at: not given
Notes: 8-mer, flanks averaged, mean of replicates
Reading: higher = stronger binding
Measurement: E-score
GCAGTCCC: -0.385
AGACCTTC: -0.0933
TACTTCTA: 0.156
CCCAGTGC: -0.376
GTCGAACA: -0.0774
TAAAATCA: 0.228

Series 3
Target: Prothrombin, mature alpha-thrombin (F2, Homo sapiens, UniProt P00734)
Technique: aptamer microarray, sandwich
Molecule type: DNA with 2'F-ANA
Matrix: in vitro
Tested at: 200 nM
Notes: whole 15-mer aptamer, many near background
Together with: Cy3 exosite-II aptamer, 400 nM
Reading: higher = stronger binding
Measurement: mean fluorescence intensity
Sequence: GGTTGGTGTGGTTGG
2'F-ANA at 3 4 8 9 10 11 12: 373 a.u.
2'F-ANA at 1 2 5 6 7 8 10 11: 52 a.u.
2'F-ANA at 1 4 10 11: 46 a.u.
2'F-ANA at 2 3 5 8 11 12 15: 183 a.u.
2'F-ANA at 1 2 5 7 10 11 14: 51.6 a.u.
2'F-ANA at 1 3 4 8 9 11 14 15: 62.9 a.u.
2'F-ANA at 2 3 6 8 10 11 12 15: 296 a.u.

Further values, each from its own experiment
PhoQ, residues 284 288 289 292 302 303 SLCLSL  fold induction (PhoP, residues 12 14 15 18 19 TPLRH (Escherichia coli, UniProt P23836); Sort-seq, refers to: YFP reporter; E. coli; PhoQ-PhoP variant library, together with: 10 µM Mg2+; baseline: high Mg2+ state, higher = stronger signaling): 7.4
